Published values of several laboratories.
Lines come from different studies, so protocols differ. ± gives the spread as reported.
CHRM2: Muscarinic acetylcholine receptor M2 (CHRM2, Homo sapiens, UniProt P08172)
Chain of UniProt P08172 (whole entry, looked up): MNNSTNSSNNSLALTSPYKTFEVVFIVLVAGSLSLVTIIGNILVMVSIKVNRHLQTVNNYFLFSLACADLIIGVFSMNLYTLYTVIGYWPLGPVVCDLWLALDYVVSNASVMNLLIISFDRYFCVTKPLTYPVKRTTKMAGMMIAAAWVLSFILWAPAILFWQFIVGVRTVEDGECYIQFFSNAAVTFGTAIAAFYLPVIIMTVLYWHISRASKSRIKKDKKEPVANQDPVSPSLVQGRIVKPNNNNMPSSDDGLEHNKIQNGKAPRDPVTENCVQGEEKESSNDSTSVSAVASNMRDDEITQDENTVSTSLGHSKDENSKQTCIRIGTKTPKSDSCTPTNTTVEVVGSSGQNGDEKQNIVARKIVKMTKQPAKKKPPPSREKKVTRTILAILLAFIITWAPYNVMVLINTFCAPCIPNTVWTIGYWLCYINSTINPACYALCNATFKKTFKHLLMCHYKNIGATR
PPARG: Peroxisome proliferator-activated receptor gamma (PPARG, Homo sapiens, UniProt P37231)
Rhomboid protease AarA: Rhomboid protease AarA (Providencia stuartii, UniProt P46116)
Chain of UniProt P46116 (whole entry, looked up): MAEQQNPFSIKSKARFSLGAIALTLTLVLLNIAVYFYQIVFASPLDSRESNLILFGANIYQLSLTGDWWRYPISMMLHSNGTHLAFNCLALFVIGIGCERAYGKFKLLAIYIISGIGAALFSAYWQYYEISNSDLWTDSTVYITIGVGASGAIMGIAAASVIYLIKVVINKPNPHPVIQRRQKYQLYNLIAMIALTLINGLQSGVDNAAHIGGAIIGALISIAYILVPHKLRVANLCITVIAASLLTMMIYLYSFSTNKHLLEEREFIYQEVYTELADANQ
Chain of UniProt Q7RTX0 (whole entry, unmodified, looked up): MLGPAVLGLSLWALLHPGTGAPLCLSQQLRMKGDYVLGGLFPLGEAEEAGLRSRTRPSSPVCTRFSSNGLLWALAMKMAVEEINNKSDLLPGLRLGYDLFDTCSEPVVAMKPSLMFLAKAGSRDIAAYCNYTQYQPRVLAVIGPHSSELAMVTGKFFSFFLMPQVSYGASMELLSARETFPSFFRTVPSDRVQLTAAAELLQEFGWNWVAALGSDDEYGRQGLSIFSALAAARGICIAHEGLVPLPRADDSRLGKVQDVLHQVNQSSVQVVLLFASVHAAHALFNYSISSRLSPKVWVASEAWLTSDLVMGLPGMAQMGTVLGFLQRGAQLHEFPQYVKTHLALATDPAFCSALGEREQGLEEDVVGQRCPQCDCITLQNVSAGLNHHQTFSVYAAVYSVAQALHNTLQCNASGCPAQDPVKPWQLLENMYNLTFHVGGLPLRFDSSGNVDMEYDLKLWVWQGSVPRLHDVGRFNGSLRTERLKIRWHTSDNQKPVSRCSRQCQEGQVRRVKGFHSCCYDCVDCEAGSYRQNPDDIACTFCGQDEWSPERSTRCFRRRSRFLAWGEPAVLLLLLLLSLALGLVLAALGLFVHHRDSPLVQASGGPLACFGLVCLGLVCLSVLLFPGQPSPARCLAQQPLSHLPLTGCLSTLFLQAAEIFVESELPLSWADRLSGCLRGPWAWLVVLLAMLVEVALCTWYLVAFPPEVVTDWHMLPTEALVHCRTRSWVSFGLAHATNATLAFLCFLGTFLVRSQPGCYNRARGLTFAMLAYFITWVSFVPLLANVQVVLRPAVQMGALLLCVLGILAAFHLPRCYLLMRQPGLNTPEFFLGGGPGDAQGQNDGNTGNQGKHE
Chain of UniProt O00748 (whole entry, looked up): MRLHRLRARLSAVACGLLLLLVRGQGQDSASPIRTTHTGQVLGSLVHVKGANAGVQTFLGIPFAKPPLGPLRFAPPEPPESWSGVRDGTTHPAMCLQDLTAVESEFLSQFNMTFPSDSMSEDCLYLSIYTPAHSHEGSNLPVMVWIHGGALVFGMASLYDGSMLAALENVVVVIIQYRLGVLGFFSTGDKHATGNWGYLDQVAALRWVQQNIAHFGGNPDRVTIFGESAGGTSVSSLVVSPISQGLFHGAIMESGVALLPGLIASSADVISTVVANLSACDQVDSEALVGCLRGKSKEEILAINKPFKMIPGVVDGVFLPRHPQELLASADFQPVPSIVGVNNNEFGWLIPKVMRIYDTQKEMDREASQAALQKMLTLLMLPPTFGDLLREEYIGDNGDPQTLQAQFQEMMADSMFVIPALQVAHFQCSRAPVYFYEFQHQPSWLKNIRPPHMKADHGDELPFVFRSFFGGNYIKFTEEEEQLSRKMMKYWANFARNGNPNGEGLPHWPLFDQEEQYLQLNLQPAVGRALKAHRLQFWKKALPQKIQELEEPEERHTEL
Chain of UniProt Q9HBY8 (whole entry, looked up): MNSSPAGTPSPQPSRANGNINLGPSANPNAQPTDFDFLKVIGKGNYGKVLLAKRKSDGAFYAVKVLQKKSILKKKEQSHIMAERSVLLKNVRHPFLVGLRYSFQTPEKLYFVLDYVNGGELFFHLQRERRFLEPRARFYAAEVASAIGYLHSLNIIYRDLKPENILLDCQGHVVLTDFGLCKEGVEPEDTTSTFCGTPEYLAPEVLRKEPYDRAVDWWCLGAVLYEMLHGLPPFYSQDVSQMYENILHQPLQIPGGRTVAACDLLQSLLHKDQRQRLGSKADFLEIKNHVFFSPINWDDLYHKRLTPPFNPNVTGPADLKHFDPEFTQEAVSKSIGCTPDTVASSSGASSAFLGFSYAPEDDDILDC
Chain of UniProt Q9SZU7 (whole entry, unmodified, looked up): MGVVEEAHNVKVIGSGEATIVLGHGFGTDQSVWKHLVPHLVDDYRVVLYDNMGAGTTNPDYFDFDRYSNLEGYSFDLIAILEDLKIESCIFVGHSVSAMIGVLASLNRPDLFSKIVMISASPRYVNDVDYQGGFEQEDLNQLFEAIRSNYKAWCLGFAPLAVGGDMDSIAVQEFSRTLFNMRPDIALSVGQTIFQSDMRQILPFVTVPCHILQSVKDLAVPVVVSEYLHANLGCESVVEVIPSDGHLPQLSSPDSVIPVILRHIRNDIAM
Chain of UniProt Q13547 (whole entry, looked up): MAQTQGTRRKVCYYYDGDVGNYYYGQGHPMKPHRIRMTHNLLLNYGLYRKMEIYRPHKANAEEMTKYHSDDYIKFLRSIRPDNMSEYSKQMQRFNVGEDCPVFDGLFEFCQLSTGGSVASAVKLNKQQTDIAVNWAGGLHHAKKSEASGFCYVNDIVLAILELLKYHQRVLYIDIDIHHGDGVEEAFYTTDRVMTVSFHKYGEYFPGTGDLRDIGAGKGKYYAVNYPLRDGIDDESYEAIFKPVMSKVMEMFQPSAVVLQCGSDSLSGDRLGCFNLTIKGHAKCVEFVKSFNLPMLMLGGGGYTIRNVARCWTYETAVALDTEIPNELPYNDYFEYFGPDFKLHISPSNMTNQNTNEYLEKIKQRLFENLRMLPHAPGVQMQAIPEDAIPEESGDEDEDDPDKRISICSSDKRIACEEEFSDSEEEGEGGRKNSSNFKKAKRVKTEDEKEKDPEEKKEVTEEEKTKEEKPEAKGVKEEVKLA
Chain of UniProt P43358 (whole entry, looked up): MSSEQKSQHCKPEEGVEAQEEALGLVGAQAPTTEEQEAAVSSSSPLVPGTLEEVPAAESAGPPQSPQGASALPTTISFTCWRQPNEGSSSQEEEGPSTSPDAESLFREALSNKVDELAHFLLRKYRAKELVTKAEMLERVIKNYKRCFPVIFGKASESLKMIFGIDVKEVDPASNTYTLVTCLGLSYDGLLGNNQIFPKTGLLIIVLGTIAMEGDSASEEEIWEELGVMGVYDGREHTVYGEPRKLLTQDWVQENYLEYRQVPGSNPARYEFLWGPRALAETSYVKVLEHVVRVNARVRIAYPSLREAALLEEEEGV
Chain of UniProt Q5U431 (whole entry, looked up): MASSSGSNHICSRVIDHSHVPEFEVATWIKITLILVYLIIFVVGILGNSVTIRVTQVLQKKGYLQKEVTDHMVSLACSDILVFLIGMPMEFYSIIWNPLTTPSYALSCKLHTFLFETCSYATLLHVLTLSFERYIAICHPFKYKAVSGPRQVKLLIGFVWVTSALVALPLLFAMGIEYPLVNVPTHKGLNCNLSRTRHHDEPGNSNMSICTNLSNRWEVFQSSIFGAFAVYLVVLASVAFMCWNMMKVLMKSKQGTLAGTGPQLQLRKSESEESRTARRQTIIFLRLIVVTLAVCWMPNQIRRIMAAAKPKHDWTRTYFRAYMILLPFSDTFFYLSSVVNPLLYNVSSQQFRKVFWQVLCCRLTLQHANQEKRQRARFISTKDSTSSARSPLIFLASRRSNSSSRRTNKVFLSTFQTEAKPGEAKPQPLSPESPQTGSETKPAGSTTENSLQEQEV

| Compound | target or system | test | system | setting | how to read | quantity | result |
| --- | --- | --- | --- | --- | --- | --- | --- |
| CC(C)(Oc1ccc(Cl)cc1)C(=O)O | Taste receptor type 1 member 3, with T1R1 (TAS1R3, Homo sapiens, UniProt Q7RTX0, A733V) |  |  |  |  | IC50 | 440 µM |
| Cc1cccc2c1N(C(=O)n1ccnn1)CC2 | KAI2 (Arabidopsis thaliana, UniProt Q9SZU7, S95A) | ITC |  | S95A mutant, mean |  | Kd | 2210 µM |
| Cc1nn(-c2cccc(N)c2)c(=O)c2cnc(Nc3ccc(N4CCNCC4)cc3)nc12 | SGK2 (Homo sapiens, UniProt Q9HBY8) | kinase activity, inhibitor, SelectScreen kinase profiling |  |  |  | IC50 | 1.58 µM |
| Cc1ncsc1-c1ccc(C(C)NC(=O)C2CC(O)CN2C(=O)C(NC(=O)CCCCCCCCCCN2CCCC(Nc3ncc(Cl)c(Nc4ccccc4S(=O)(=O)C(C)C)n3)C2)C(C)(C)C)cc1 (stereo not drawn) | 22Rv1 | RNA-seq, measured: LEAP2 mRNA |  | concentration not given | baseline: DMSO | log2 fold change | -3.15 |
| C=CCn1c(=O)c2ccccc2n2c(SCC(=O)Nc3ccc(NC(C)=O)cc3)nnc12 | CHRM2 | binding affinity, allosteric modulator |  |  |  | Kb | 5.9 ± 1 µM |
| O=C(Nc1ccc(OC(F)(F)F)cc1)N1CCC(Cc2cccc(Oc3ccc(C(F)(F)F)cn3)c2)CC1 | Cocaine esterase (CES2, Homo sapiens, UniProt O00748) | enzyme activity, inhibitor |  |  |  | IC50 | 0.6 µM |
| CC(C)C[C@H](NC(=O)[C@@H](CCCCNC(=O)[C@@H](Cc1ccccc1)NC(=O)CCCCCNC(=O)CN1CCN(CC(=O)O)CCN(CC(=O)O)CCN(CC(=O)O)CC1)NC(=O)[C@H](Cc1ccc(O)cc1)NC(=O)[C@H](CO)NC(=O)[C@H](Cc1c[nH]c2ccccc12)NC(=O)[C@H](Cc1c[nH]cn1)NC(=O)[C@@H]1CCC(=O)N1)C(=O)N[C@@H](CCCNC(=N)N)C(=O)N1CCC[C@H]1C(=O)NCC(N)=O [indium-111 labelled] |  |  | female athymic nude mice, stomach | intravenous, 0.037 MBq, 2 h |  | tissue uptake | 0.23 ± 0.12 %ID/g |
| CC(CCC(=O)NCC(=O)O)C1CCC2C3C(O)CC4CC(O)CCC4(C)C3CC(O)C12C (stereo not drawn) | G-protein coupled receptor 39 (Mus musculus, UniProt Q5U431) | calcium signal, agonist, fluorescence |  |  |  | EC50 | > 200 µM |
| Cc1c(Cc2cccc(OC(C)(C)C(=O)O)c2)c2ccc(C(=O)N[C@@H](C)c3cccc(Cl)c3)cc2n1C | PPARG | ligand displacement, TR-FRET |  |  |  | IC50 | 0.002 µM |
| CC[C@H](C)[C@@H]1NC(=O)[C@H](Cc2ccc(O)cc2)NC(=O)CCSCc2cccc(c2)CSCCNC(=O)[C@H](Cc2c[nH]cn2)NC(=O)[C@H](Cc2ccc(O)cc2)NC(=O)[C@H](CC(=O)O)NC(=O)[C@H](Cc2ccc(F)cc2)NC(=O)[C@H](CC(C)C)NC(=O)[C@H](CCCNC(=N)N)NC1=O | Melanoma-associated antigen 4, MAGE homology domain (Homo sapiens, UniProt P43358) | binding, inhibitor, TR-FRET displacement |  | added: Alexa647-MTP-1 |  | IC50 | 0.043 ± 0.017 µM |
| O=C(NC1CCN(Cc2ccccc2)CC1)C(C(F)(F)F)C(F)(F)F | Rhomboid protease AarA | enzyme activity, inhibitor, fluorescence |  |  |  | IC50 | 29 µM |
| O=C(NCC(F)(F)c1ccc(Cl)cc1Cl)c1cc(Cl)nnc1Oc1cccc(C2CC2)c1 | serine palmitoyltransferase (Zymoseptoria tritici, UniProt F9X349+F9XMN6) |  |  |  |  | IC50 | 0.46 ± 0.015 µM |
| O=C(O)c1ccc(Oc2ccc(Cl)cc2NS(=O)(=O)c2ccc(Cl)c(Cl)c2)cc1 | CCR5 (Homo sapiens, UniProt P51681) | antagonist | U2OS membranes | 25 °C, added: 20 nM CCL3 |  | IC50 | 4.95 µM |
| Cc1c(Cc2cccc(OC(C)(C)C(=O)O)c2)c2ccc(C(=O)N[C@@H](C)c3cccc(C(C)(C)C)c3)cc2n1C(C)C | PPARG | ligand displacement, TR-FRET |  |  |  | IC50 | 0.003 µM |
| O=C(CCNC(=O)CNC(=O)CC(c1ccccc1)(c1ccccc1)c1ccccc1)NC[C@H]1CCCN(C(=O)c2ccc(F)cc2)C1 | CHRM2 | ligand displacement, radioligand |  | cell membranes |  | IC50 | > 30 µM |
| Cc1c(Cc2ccc(OC(C)C(=O)O)cc2)c2ccc(C(=O)N[C@@H](C)c3ccc(C4CC4)cc3)cc2n1C (stereo partly drawn) | Peroxisome proliferator-activated receptor gamma, ligand-binding domain (PPARG, Homo sapiens, UniProt P37231) | reporter gene, luciferase reporter | HEK293T, Gal4-PPARγ LBD |  |  | IC50 | 7.47 µM |
| O=C(Nc1cccc(Cl)c1)C(C(F)(F)F)C(F)(F)F | Rhomboid protease AarA | enzyme activity, inhibitor, fluorescence |  |  |  | IC50 | 10 µM |
| Cc1c(Cc2ccc(Cl)c(OC(C)C(=O)O)c2)c2ccc(C(=O)NC(C)c3cc(F)cc(C(C)(C)C)c3)cc2n1C (stereo not drawn) | PPARG | ligand displacement, TR-FRET |  |  |  | IC50 | 0.014 µM |
| Nc1ncc(-c2cc(-c3cnn(CC(F)(F)F)c3)ncc2F)nc1C(=O)NC1CNCC(F)C1 (stereo not drawn) | EGFR | KINOMEscan |  | 1 µM | baseline: DMSO control | remaining binding | 91% |
| O=C(Nc1ccccc1O)C(C(F)(F)F)C(F)(F)F | Rhomboid protease AarA | enzyme activity, inhibitor, fluorescence |  |  |  | IC50 | 9.4 µM |
| COC1CN([C@H]2CC[C@H]([C@@]3(C)Oc4c(Cl)cc(C(=O)NCc5c(SC)cc(C)[nH]c5=O)c(C)c4O3)CC2)C1 |  | RNA-seq, measured: HAS1 mouse homolog | mouse, HT-1376 xenograft, whole blood | dose not given | baseline: vehicle | log2 fold change | 2.4 |
| C=CC(=O)Nc1cccc(Cn2ncc3cnc(Nc4cnn(CCOC)c4)nc32)c1 | ERK3 human | binding, KINOMEscan |  | 100 nM | lower = stronger binding | percent of control | 94% |
| Cc1cccc([C@H](C)NC(=O)c2ccc3c(Cc4cccc(OC(C)(C)C(=O)O)c4)c(C)n(C)c3c2)c1 | PPARG | ligand displacement, TR-FRET |  |  |  | IC50 | 0.0005 µM |
| COC(=O)CCCCCCCNC(=O)c1ccc(Nc2ncc(F)c(-c3cc(F)c4nc(C)n(C(C)C)c4c3)n2)cc1 | HDAC1 (Homo sapiens, UniProt Q13547) | enzyme activity, inhibitor |  |  |  | IC50 | > 1 µM |

A few entries again:
| Compound | target or system | test | system | setting | how to read | quantity | result |
| --- | --- | --- | --- | --- | --- | --- | --- |
| C=CC(=O)Nc1cccc(Cn2ncc3cnc(Nc4cnn(CCOC)c4)nc32)c1 | ERK3 human | binding, KINOMEscan |  | 100 nM | lower = stronger binding | percent of control | 94% |
| Cc1cccc([C@H](C)NC(=O)c2ccc3c(Cc4cccc(OC(C)(C)C(=O)O)c4)c(C)n(C)c3c2)c1 | PPARG | ligand displacement, TR-FRET |  |  |  | IC50 | 0.0005 µM |
| COC(=O)CCCCCCCNC(=O)c1ccc(Nc2ncc(F)c(-c3cc(F)c4nc(C)n(C(C)C)c4c3)n2)cc1 | HDAC1 (Homo sapiens, UniProt Q13547) | enzyme activity, inhibitor |  |  |  | IC50 | > 1 µM |
